Published values of several laboratories.
± gives the spread as reported.
Method: steady-state kinetics
B1: iodotyrosine deiodinase (Haliscomenobacter hydrossis, UniProt F4KU78); chain MKQKPAFIPYAGAQFEPEEMLSKSAEYYQFMDHRRTVREFSNRAIPLEVIENIVMTASTAPSGAHKQPWTFVVVSDPQIKAKIRQAAEKEEFESYNGRMSNEWLEDLQPFGTDWHKPFLEIAPYLIVVFRKAYDVLPDGTQRKNYYVQESVGIACGFLLAAIHQAGLVALTHTPSPMNFLQKILQRPENERPFLLVPVGYPAEGAMVPDLQRKDKAAVMVVY
B2: protein (Adiantum capillus-veneris, UniProt A0A4Y6I289); chain MTDAVENKQVEFGALEVEGIKFAPSVAALGSTKQLVLGGAGFRGLEISGNLVKFTAIGIYVDEAIIPHLSPKLHGKSIEELCNNELLFEEVLAAPFEKLVRVVFLLPLTGPQYSEKVVERMGLLPNPGIKEESTKQFLEIFKPENFPPRTSLICSFTEEALKVAFMKTDDFPEDADAVIEDKWLARAFLASIIGKDGVSPLAKLSFAERMSRCL
B3: cyc1 V329M (Streptomyces coelicolor, UniProt Q9K499); chain MHAFPHGTTATPTAIAVPPSLRLPVIEAAFPRQLHPYWPKLQETTRTWLLEKRLMPADKVEEYADGLCYTDLMAGYYLGAPDEVLQAIADYSAWFFVWDDRHDRDIVHGRAGAWRRLRGLLHTALDSPGDHLHHEDTLVAGFADSVRRLYAFLPATWNARFARHFHTVIEAYDREFHNRTRGIVPGVEEYLELRRLTFAHWIWTDLLEPSSGCELPDAVRKHPAYRRAALLSQEFAAWYNDLCSLPKEIAGDEVHNLGISLITHHSLTLEEAIGEVRRRVEECITEFLAVERDALRFADELADGTVRGKELSGAVRANVGNMRNWFSSMYWFHHESGRYMVDSWDDRSTPPYVNNEAAGEK
B4: SACOL1063 (Staphylococcus aureus, UniProt Q5HH30); chain MFSKVNNQKMLEDCFYIRKKVFVEEQGVPEESEIDEYESESIHLIGYDNGQPVATARIRPINETTVKIERVAVMKSHRGQGMGRMLMQAVESLAKDEGFYVATMNAQCHAIPFYESLNFKMRGNIFLEEGIEHIEMTKKLTSLN
B5: Ma-WS/DGAT G25V (Marinobacter nauticus); chain MTPLNPTDQLFLWLEKRQQPMHVGVLQLFSFPEGAPDDYVAQLADQLRQKTEVTAPFNQRLSYRLGQPVWVEDEHLDLEHHFRFEALPTPGRIRELLSFVSAEHSHLMDRERPMWEVHLIEGLKDRQFALYTKVHHSLVDGVSAMRMATRMLSENPDEHGMPPIWDLPCLSRDRGESDGHSLWRSVTHLLGLSGRQLGTIPTVAKELLKTINQARKDPAYDSIFHAPRCMLNQKITGSRRFAAQSWCLKRIRAVCEAYGTTVNDVVTAMCAAALRTYLMNQDALPEKPLVAFVPVSLRRDDSSGGNQVGVILASLHTDVQEAGERLLKIHHGMEEAKQRYRHMSPEEIVNYTALTLAPAAFHLLTGLAPKWQTFNVVISNVPGPSRPLYWNGAKLEGMYPVSIDMDRLALNMTLTSYNDQVEFGLIGCRRTLPSLQRMLDYLEQGLAELELNAGL
B6: GTPBP3 E142K/R136E (Homo sapiens, UniProt Q969Y2); chain TRRSSGAPAPGSGATIFALSSGQGRCGIAVIRTSGPASGHALRILTAPRDLPLARHASLRLLSDPRSGEPLDRALVLWFPGPQSFTGEDCVEFHVHGGPAVVSGVLQALGSVPGLEPAEAGKFTRRAFANGKLNLTEVEGLADLIHAETEAQRRQALRQLDGELGHLCRGWAETLTKALAHVEAYIDFGEDDNLEEGVLEQADIEVRALQVALGAHLRDARRGQRLRSGVHVVVTGPPNAGKSSLVNLLSRKPVSIVSPEPGTTRDVLETPVDLAGFPVLLSDTAGLREGVGPVEQEGVRRARERLEQADLILAMLDASDLASPSSCNFLATVVASVGAQSPSDSSQRLLLVLNKSDLLSPEGPGPGPDLPPHLLLSCLTGEGLDGLLEALRKELAAVCGDPSTDPPLLTRARHQHHLQGCLDALGHYKQSKDLALAAEALRVARGHLTRLTGGGGTEEILDIIFQDFCVGK
B7: ycjS (Escherichia coli, UniProt P77503); chain MKSAMTSSPLRVAIIGAGQVADKVHASYYCTRNDLELVAVCDSRLSQAQALAEKYGNASVWDDPQAMLLAVKPDVVSVCSPNRFHYEHTLMALEAGCHVMCEKPPAMTPEQAREMCDTARKLGKVLAYDFHHRFALDTQQLREQVTNGVLGEIYVTTARALRRCGVPGWGVFTNKELQGGGPLIDIGIHMLDAAMYVLGFPAVKSVNAHSFQKIGTQKSCGQFGEWDPATYSVEDSLFGTIEFHNGGILWLETSFALNIREQSIMNVSFCGDKAGATLFPAHIYTDNNGELMTLMQREIADDNRHLRSMEAFINHVQGKPVMIADAEQGYIIQQLVAALYQSAETGTRVEL
B8: cbh1 (Trichoderma reesei, UniProt P62694); chain QSACTLQSETHPPLTWQKCSSGGTCTQQTGSVVIDANWRWTHATNSSTNCYDGNTWSSTLCPDNETCAKNCCLDGAAYASTYGVTTSGNSLSIGFVTQSAQKNVGARLYLMASDTTYQEFTLLGNEFSFDVDVSQLPCGLNGALYFVSMDADGGVSKYPTNTAGAKYGTGYCDSQCPRDLKFINGQANVEGWEPSSNNANTGIGGHGSCCSEMDIWEANSISEALTPHPCTTVGQEICEGDGCGGTYSDNRYGGTCDPDGCDWNPYRLGNTSFYGPGSSFTLDTTKKLTVVTQFETSGAINRYYVQNGVTFQQPNAELGSYSGNELNDDYCTAEEAEFGGSSFSDKGGLTQFKKATSGGMVLVMSLWDDYYANMLWLDSTYPTNETSSTPGAVRGSCSTSSGVPAQVESQSPNAKVTFSNIKFGPIGSTGNPSGGNPPGGNRGTTTTRRPATTTGSSPGPTQSHYGQCGGIGYSGPTVCASGTTCQVLNPYYSQCL
B9: LigI D246A (Sphingobium sp. SYK-6, UniProt O87170); chain TNDERILSWNETPSKPRYTPPPGAIDAHCHVFGPMAQFPFSPKAKYLPRDAGPDMLFALRDHLGFARNVIVQASCHGTDNAATLDAIARAQGKARGIAVVDPAIDEAELAALHEGGMRGIRFNFLKRLVDDAPKDKFLEVAGRLPAGWHVVIYFEADILEELRPFMDAIPVPIVIDHMGRPDVRQGPDGADMKAFRRLLDSREDIWFKATCPDRLDPAGPPWDDFARSVAPLVADYADRVIWGTAWPHPNMQDAIPDDGLVVDMIPRIAPTPELQHKMLVTNPMRLYWSEEM
B10: YdjH (Escherichia coli, UniProt P77493); chain MDNLDVICIGAAIVDIPLQPVSKNIFDVDSYPLERIAMTTGGDAINEATIISRLGHRTALMSRIGKDAAGQFILDHCRKENIDIQSLKQDVSIDTSINVGLVTEDGERTFVTNRNGSLWKLNIDDVDFARFSQAKLLSLASIFNSPLLDGKALTEIFTQAKARQMIICADMIKPRLNETLDDICEALSYVDYLFPNFAEAKLLTGKETLDEIADCFLACGVKTVVIKTGKDGCFIKRGDMTMKVPAVAGITAIDTIGAGDNFASGFIAALLEGKNLRECARFANATAAISVLSVGATTGVKNRKLVEQLLEEYEG
B11: sacB (Priestia megaterium, UniProt D5DC07); chain KGNDSKDFNNSYGISHITRDNMVKIPQQQNSDQFKVPAFDESTIKNIASAKGKNASGNTIDLDVWDSWPLQNADGTVATYHGYQIVFALAGDPKDSNDTSVYLFYKKAGDKSIDSWKNAGRVFKDSDKFVPNDPHLKNQTQEWSGSGTLTKDGKVRLFYTDYSGKQYGKQTLTTAQVNMSQPNDNTLKVDGVEDYKSIFDGDGKIYQTVQQFIDEGGYDTGDNHTLRDPHYIEDNGHKYLVFEANTGTEDGYQGEDSLYNRAYYGGNNPFFQSEKKKLLEGSNKEKASLANGALGIIELNDDYTLKKVMKPLITSNTVTDEIERANIFKKDGKWYLFTDSRGSKMTIDGIGQDDVYMLGYVSNTLTGKYKPLNDTGLVLHMDLDPNDKTFTYSHFAVPQTKGDNVVITSYMTNRGFYEDNHSTFAPSFLVNIDGSKTSVVKDRVLEQGQLTVDED
B12: FNO G29W (Thermobifida fusca, UniProt Q47RA9); chain MIMIMASKSSPHDLPDVSGLSIAVLGGTWDQGRGLARRFAMAGHEVILGSRSAERAQAVAAELGEGLPVRGMDNAGAAEAGDVVIVAVPWDGHRALLESLKDVLAGKIVVDCVNPLGFDKRGAYALPVEEGSAAEQAAAILPDSRVVAAFHHVSAVLLLDPEVEKVDLDVLVLGDDREATDVVRALAARIPGVRGVYGGRLRNAHQVEAFTANLISINRRYKAHAGIRITDI
Chain of UniProt P10724 (whole entry, looked up): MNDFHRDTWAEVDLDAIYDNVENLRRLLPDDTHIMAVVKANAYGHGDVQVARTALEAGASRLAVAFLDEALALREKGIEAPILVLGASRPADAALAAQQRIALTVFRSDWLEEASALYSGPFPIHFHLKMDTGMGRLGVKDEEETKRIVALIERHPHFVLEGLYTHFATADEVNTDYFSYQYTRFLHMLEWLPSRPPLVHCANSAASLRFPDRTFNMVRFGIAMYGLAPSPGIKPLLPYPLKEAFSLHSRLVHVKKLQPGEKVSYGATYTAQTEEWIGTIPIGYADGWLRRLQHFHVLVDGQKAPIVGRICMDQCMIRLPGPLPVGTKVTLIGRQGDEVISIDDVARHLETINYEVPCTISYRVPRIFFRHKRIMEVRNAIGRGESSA
Chain of UniProt Q9NZ08 (whole entry, looked up): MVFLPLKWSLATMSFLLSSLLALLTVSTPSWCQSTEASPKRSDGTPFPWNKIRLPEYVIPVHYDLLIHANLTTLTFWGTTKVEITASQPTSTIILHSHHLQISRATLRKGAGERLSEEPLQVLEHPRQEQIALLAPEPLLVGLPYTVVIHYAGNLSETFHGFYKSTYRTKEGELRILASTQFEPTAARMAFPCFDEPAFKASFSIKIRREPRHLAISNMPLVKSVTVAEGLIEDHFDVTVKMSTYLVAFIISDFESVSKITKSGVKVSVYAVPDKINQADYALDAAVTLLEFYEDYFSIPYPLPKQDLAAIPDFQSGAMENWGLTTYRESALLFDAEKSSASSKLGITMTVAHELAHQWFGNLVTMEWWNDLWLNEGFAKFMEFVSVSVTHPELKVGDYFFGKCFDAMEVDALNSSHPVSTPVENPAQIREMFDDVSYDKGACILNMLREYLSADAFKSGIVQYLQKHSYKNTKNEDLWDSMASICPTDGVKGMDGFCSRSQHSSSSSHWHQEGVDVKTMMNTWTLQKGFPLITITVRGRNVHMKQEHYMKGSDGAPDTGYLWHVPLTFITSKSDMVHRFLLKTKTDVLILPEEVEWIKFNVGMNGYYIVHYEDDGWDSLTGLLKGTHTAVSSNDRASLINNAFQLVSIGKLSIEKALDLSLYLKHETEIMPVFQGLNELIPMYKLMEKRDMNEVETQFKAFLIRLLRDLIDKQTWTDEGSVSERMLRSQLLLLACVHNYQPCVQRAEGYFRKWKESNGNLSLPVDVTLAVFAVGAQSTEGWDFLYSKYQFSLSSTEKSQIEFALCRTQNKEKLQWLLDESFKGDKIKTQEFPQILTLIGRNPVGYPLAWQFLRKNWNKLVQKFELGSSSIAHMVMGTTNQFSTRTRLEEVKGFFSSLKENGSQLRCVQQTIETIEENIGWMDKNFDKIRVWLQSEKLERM

| Substance | substrate | conditions | kcat/Km |
| --- | --- | --- | --- |
| B1 (iodotyrosine deiodinase) | COc1cc(C[C@H](N)C(=O)O)cc(I)c1O | pH 7.4, 25 °C | 50000 ± 10000 M⁻¹ s⁻¹ |
| B2 (protein) | O=C(/C=C/c1ccc(O)cc1)c1c(O)cc(O)cc1O | – | 1.6e+06 M⁻¹ s⁻¹ |
| B3 (cyc1 V329M) | CC(C)=CCC/C(C)=C/CC/C(C)=C/CO[P@@](=O)(O)OP(=O)(O)O | pH 6.5, 30 °C, together with: MgCl2 10 mM | 98 ± 3 M⁻¹ s⁻¹ |
| Ptb (Listeria monocytogenes, UniProt Q8Y7B7) | CCCCC(=O)SCCNC(=O)CCNC(=O)[C@H](O)C(C)(C)COP(=O)(O)OP(=O)(O)OC[C@H]1O[C@@H](n2cnc3c(N)ncnc32)[C@H](O)[C@@H]1OP(=O)(O)O | pH 7.5, 25 °C, apparent | 4.2e+06 M⁻¹ s⁻¹ |
| B4 (SACOL1063) | C[C@@H](O)[C@H](N)C(=O)O | pH 8, 37 °C, Hill coefficient, together with: AcCoA 1 mM, L-Thr 0-10 mM | 890 M⁻¹ s⁻¹ |
| B5 (Ma-WS/DGAT G25V) | CCCCCC(=O)SCCNC(=O)CCNC(=O)[C@H](O)C(C)(C)COP(=O)(O)OP(=O)(O)OC[C@H]1O[C@@H](n2cnc3c(N)ncnc32)[C@H](O)[C@@H]1OP(=O)(O)O | pH 7.5, 25 °C, NaCl 300 mM, lower limit, not saturable, apparent, together with: 1-hexanol 4 mM | 30.9 ± 0.5 M⁻¹ s⁻¹ |
| B6 (GTPBP3 E142K/R136E) | Nc1nc2c(ncn2[C@@H]2O[C@H](COP(=O)(O)OP(=O)(O)OP(=O)(O)O)[C@@H](O)[C@H]2O)c(=O)[nH]1 | pH 8, 37 °C, KCl 300 mM | 574 M⁻¹ s⁻¹ |
| B7 (ycjS) | CO[C@@H]1O[C@H](CO)[C@@H](O)C(=O)[C@H]1O | pH 7, 30 °C, together with: NADH 0.3 mM | 23400 ± 2200 M⁻¹ s⁻¹ |
| ERAP1 (Homo sapiens, UniProt Q9NZ08) | CC(C)C[C@H](N)C(=O)N[C@@H](CO)C(=O)N[C@@H](CCCNC(=N)N)C(=O)N[C@@H](Cc1c[nH]cn1)C(=O)N[C@@H](Cc1c[nH]cn1)C(=O)N[C@@H](C)C(=O)N[C@@H](Cc1ccccc1)C(=O)N[C@@H](CO)C(=O)N[C@@H](Cc1ccccc1)C(=O)N[C@@H](CCCNC(=N)N)C(=O)O | 25 °C | 230000 ± 80000 M⁻¹ s⁻¹ |
| B8 (cbh1) | O=[N+]([O-])c1ccccc1O[C@@H]1O[C@H](CO)[C@@H](O[C@@H]2O[C@H](CO)[C@@H](O)[C@H](O)[C@H]2O)[C@H](O)[C@H]1O | pH 5, 25 °C, apparent | 9.5 M⁻¹ s⁻¹ |
| B9 (LigI D246A) | O=C(O)c1cc(C(=O)O)oc(=O)c1 | pH 8.25, 30 °C | 16 ± 2 M⁻¹ s⁻¹ |
| B10 (YdjH) | O=C(O)[C@H](O)[C@@H](O)[C@H](O)[C@H](O)CO | pH 7.4, 30 °C, KCl 100 mM, together with: ATP 2.0 mM, MgCl2 5.0 mM | 1400 ± 100 M⁻¹ s⁻¹ |
| alanine racemase (Geobacillus stearothermophilus, UniProt P10724) | C[C@@H](N)C(=O)O | pH 9, room temperature, together with: NAD+ 10 mM | 1.6e+06 M⁻¹ s⁻¹ |
| B11 (sacB) | OC[C@H]1O[C@@](CO)(O[C@H]2O[C@H](CO)[C@@H](O)[C@H](O)[C@H]2O)[C@@H](O)[C@@H]1O | pH 6.9 | 11700 M⁻¹ s⁻¹ |
| B12 (FNO G29W) | CC(=O)c1ccc[n+](Cc2ccccc2)c1 | pH 8, 25 °C, together with: F420H2 40 µM | 568 ± 97 M⁻¹ s⁻¹ |
| alanine aminopeptidase (Neisseria meningitidis, UniProt Q9JYV4) | NC(=O)Cc1cc(=O)oc2cc(NC(=O)[C@@H](N)C3Cc4ccccc4C3)ccc12 | pH 7.5, 37 °C | 35000 ± 2000 M⁻¹ s⁻¹ |

For quick reference, copied from above:
| Substance | substrate | conditions | kcat/Km |
| --- | --- | --- | --- |
| B7 (ycjS) | CO[C@@H]1O[C@H](CO)[C@@H](O)C(=O)[C@H]1O | pH 7, 30 °C, together with: NADH 0.3 mM | 23400 ± 2200 M⁻¹ s⁻¹ |
| alanine aminopeptidase (Neisseria meningitidis, UniProt Q9JYV4) | NC(=O)Cc1cc(=O)oc2cc(NC(=O)[C@@H](N)C3Cc4ccccc4C3)ccc12 | pH 7.5, 37 °C | 35000 ± 2000 M⁻¹ s⁻¹ |
| B11 (sacB) | OC[C@H]1O[C@@](CO)(O[C@H]2O[C@H](CO)[C@@H](O)[C@H](O)[C@H]2O)[C@@H](O)[C@@H]1O | pH 6.9 | 11700 M⁻¹ s⁻¹ |
